Assay results gathered from unrelated publications.
Parts stem from different laboratories: compare values within a part only.
UniProt P47898, sequence (whole entry, looked up): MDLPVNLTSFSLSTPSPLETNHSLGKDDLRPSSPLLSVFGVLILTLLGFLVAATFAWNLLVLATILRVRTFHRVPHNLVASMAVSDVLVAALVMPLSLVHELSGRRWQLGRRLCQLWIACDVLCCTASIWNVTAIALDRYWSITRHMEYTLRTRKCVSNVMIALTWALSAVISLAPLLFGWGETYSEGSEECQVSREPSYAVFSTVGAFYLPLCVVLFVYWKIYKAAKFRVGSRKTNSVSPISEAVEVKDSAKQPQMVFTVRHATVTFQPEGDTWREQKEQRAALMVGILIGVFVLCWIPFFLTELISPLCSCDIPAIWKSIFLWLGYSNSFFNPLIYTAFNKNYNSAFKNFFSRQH

Study 1
Host: human
Medium: microsomes or S9
Concentration: 2 µM
Time: 0.5 h
`CCOC(=O)C1CCN(c2nccc3c2OC(C)(C)C=C3)CC1` gave a remaining compound of 0.178%.
`CCCCOC(=O)c1ccc(NC(=O)c2c(OCC)cc(=O)n3c2CCCC3)cc1` gave a remaining compound of 49.8%.
The remaining compound of `CC(C)C(C)NC(=O)N(C)CC(C)(C)CN1CCOCC1` (stereo not shown) is reported as 46.2%.
For `CC(C)CN1CCN(S(=O)(=O)c2ccc(-c3nnc(C(C)C)o3)o2)CC1`, the remaining compound was 30.1%.
For `Cn1ccc2c(-c3ccc(-c4nnco4)cc3)ccnc21`, the remaining compound was over 99.9%.
`CC(C)(C)C1CCc2onc(C(=O)NCCCOc3ccccc3F)c2C1` (stereo not shown) has a remaining compound of 95%.
`CCCN(CC(=O)N(C)C)C(=O)CS(=O)(=O)N1CCC(C)CC1` gave a remaining compound of 83.2%.

Study 2
Target: Myc proto-oncogene protein, bHLH-zipper, MAX partner unstated (MYC, Homo sapiens, UniProt P01106, residues 368-449)
UniProt P01106, sequence (368-449, looked up): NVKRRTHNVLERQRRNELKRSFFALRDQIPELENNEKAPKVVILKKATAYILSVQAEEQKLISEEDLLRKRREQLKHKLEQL
Technique: protein-binding microarray
Molecule type: double-stranded DNA, one strand shown
Medium: in vitro
Concentration: not given
Setting: k-mer, scored over probes, only values ≥0.25
Reading: higher = stronger binding
`AGCGTGAC` gave an E-score of 0.358.
For `CCCCGTCC`, the E-score was 0.278.
With `CGTCCACG` the E-score was 0.364.
`CCGCCCCA` has an E-score of 0.392.
With `GGCCGCAC` the E-score was 0.254.
`CATCGTGA` gave an E-score of 0.344.
`ACCCACGT` gave an E-score of 0.42.
`ACGAGGGA` gave an E-score of 0.36.

Study 3
Target: Interferon regulatory factor 5, full length, phosphomimetic (IRF5, Homo sapiens, UniProt Q13568-2, residues 1-514, S451D/S453D/S456D/S462D)
Technique: protein-binding microarray
Molecule type: double-stranded DNA, one strand shown
Medium: in vitro
Concentration: 940 nM top
Setting: 60-bp whole probe
Together with: salmon DNA 0.4 mg/ml
Relative to: random background probes
Reading: higher = stronger binding
Shared flanks, not repeated: GCCTAGCAC … GTCTTGATTCGCTTGACGCTGCTG
Under “fitted relative affinity”, `TTAAGTTTCCTACTGCTTTAGTGCTAG` is recorded as 1.08 z-score.
Under “fitted relative affinity”, `TCAATTTTGTTTTTCATACTGTGCTAG` is recorded as 0.867 z-score.
Under “fitted relative affinity”, `TTAGGTCTCCTTATCCTGTAGTGCTAG` is recorded as 0.517 z-score.
`TTAGATTTCGGGTATCCATTAGTGCTA` — result for “fitted relative affinity”: 1.43 z-score.
Under “fitted relative affinity”, `GACGGTATCGGTTTTGGGACGTGCTAG` is recorded as 7.65 z-score.
`TTCGGTATCGGGTTTCGGTTAGTGCTA` — result for “fitted relative affinity”: 8.65 z-score.
For `TCAACTTCTGTTTTTGCACTGTGCTAG`, “fitted relative affinity” read 0.493 z-score.
Under “fitted relative affinity”, `GACGGTATCGGCCTGGGGACGTGCTAG` is recorded as 4.28 z-score.

Mixed results
`CCc1ccccc1C(=O)Nc1n[nH]c2c(C)c(F)c(C3C(C#N)=C(C)N(C)C(C)=C3C#N)cc12` gave an inhibition of 19.9% (HTR5A (Homo sapiens, UniProt P47898); ligand displacement; 10 µM).
`CN(C)C(=O)N1CC[C@H](N=C2Nc3cc(F)ccc3N(CC(F)F)c3ccc(Cl)cc32)C1` gave a viability of 106% (sample C colorectal tumour organoid; 0.1 µM; relative to: DMSO).

For quick reference, copied from above (study 3):
Under “fitted relative affinity”, `TTAAGTTTCCTACTGCTTTAGTGCTAG` is recorded as 1.08 z-score.
`TTCGGTATCGGGTTTCGGTTAGTGCTA` — result for “fitted relative affinity”: 8.65 z-score.
Under “fitted relative affinity”, `GACGGTATCGGTTTTGGGACGTGCTAG` is recorded as 7.65 z-score.
Under “fitted relative affinity”, `TCAATTTTGTTTTTCATACTGTGCTAG` is recorded as 0.867 z-score.
